Earlier results, collected from citations in different studies.
Compare with care: the assays were run in different laboratories. ± gives the spread as reported.
B1: CCL1; sequence looked up; chain KSMQVPFSRCCFSFAEQEIPLRAILCYRNTSSICSNEGLIFKLKRGKEACALDTVGWVQRHRKMLRHCPSKRK
Chain of UniProt P04692 (whole entry, looked up): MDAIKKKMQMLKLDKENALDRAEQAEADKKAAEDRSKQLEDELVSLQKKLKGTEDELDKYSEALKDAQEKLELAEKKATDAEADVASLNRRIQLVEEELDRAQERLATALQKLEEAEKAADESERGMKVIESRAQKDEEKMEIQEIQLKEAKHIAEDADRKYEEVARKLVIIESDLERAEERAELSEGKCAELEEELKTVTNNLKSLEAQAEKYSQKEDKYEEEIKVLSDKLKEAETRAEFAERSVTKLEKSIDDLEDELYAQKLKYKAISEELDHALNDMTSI
Chain of UniProt Q96P20 (whole entry, looked up): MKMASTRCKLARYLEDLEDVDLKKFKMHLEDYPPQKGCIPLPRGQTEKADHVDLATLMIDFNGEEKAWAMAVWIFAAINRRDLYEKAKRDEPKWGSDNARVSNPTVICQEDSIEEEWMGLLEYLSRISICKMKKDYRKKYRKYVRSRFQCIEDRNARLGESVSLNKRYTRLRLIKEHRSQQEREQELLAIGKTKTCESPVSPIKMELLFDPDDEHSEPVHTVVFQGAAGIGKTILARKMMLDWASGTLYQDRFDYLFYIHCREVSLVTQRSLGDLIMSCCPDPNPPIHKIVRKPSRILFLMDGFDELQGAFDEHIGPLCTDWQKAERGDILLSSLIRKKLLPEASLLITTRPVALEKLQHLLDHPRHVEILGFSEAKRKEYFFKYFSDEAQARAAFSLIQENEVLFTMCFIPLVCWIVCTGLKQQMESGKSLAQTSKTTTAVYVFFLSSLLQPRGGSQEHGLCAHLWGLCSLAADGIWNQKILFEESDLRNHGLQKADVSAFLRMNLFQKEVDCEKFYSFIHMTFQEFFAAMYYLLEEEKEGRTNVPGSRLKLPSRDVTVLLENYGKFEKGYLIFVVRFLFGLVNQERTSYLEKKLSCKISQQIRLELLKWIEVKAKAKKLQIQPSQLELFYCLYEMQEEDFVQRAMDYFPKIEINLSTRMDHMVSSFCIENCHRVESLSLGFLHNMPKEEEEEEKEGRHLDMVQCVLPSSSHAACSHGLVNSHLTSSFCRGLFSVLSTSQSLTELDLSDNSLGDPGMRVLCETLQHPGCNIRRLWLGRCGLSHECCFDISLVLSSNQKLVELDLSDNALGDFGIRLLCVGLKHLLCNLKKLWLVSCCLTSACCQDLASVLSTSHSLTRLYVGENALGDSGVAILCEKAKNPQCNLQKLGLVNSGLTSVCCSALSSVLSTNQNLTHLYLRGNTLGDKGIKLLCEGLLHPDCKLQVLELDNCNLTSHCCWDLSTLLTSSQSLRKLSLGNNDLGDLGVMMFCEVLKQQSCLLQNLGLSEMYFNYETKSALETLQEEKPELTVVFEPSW
Chain of UniProt Q9HBX9 (whole entry, looked up): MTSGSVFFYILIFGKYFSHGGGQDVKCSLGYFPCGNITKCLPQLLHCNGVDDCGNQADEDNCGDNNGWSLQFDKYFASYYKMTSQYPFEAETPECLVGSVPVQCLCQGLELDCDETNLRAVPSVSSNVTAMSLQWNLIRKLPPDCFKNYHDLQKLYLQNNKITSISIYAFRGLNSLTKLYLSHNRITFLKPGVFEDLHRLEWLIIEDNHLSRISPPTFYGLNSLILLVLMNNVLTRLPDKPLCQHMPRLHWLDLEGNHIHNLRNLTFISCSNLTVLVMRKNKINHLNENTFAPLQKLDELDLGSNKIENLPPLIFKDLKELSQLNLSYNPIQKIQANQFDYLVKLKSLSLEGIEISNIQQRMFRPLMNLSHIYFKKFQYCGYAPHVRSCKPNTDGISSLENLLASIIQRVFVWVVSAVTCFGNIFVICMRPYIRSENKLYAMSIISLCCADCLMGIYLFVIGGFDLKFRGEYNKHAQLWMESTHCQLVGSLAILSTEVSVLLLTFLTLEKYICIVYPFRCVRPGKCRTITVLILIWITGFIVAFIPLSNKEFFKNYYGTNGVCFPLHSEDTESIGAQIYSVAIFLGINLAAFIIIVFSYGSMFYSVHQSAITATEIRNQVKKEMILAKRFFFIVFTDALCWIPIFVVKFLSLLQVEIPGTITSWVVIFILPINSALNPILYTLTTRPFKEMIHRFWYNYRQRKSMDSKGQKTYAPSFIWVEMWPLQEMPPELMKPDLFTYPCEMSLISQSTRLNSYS
Chain of UniProt Q9ULZ3 (whole entry, looked up): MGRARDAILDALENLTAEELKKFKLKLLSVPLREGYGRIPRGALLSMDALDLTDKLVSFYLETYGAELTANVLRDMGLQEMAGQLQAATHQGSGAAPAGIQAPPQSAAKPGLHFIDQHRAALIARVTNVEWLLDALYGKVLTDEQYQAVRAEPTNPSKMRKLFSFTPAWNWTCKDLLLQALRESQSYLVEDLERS
Chain of UniProt P45481 (whole entry, looked up): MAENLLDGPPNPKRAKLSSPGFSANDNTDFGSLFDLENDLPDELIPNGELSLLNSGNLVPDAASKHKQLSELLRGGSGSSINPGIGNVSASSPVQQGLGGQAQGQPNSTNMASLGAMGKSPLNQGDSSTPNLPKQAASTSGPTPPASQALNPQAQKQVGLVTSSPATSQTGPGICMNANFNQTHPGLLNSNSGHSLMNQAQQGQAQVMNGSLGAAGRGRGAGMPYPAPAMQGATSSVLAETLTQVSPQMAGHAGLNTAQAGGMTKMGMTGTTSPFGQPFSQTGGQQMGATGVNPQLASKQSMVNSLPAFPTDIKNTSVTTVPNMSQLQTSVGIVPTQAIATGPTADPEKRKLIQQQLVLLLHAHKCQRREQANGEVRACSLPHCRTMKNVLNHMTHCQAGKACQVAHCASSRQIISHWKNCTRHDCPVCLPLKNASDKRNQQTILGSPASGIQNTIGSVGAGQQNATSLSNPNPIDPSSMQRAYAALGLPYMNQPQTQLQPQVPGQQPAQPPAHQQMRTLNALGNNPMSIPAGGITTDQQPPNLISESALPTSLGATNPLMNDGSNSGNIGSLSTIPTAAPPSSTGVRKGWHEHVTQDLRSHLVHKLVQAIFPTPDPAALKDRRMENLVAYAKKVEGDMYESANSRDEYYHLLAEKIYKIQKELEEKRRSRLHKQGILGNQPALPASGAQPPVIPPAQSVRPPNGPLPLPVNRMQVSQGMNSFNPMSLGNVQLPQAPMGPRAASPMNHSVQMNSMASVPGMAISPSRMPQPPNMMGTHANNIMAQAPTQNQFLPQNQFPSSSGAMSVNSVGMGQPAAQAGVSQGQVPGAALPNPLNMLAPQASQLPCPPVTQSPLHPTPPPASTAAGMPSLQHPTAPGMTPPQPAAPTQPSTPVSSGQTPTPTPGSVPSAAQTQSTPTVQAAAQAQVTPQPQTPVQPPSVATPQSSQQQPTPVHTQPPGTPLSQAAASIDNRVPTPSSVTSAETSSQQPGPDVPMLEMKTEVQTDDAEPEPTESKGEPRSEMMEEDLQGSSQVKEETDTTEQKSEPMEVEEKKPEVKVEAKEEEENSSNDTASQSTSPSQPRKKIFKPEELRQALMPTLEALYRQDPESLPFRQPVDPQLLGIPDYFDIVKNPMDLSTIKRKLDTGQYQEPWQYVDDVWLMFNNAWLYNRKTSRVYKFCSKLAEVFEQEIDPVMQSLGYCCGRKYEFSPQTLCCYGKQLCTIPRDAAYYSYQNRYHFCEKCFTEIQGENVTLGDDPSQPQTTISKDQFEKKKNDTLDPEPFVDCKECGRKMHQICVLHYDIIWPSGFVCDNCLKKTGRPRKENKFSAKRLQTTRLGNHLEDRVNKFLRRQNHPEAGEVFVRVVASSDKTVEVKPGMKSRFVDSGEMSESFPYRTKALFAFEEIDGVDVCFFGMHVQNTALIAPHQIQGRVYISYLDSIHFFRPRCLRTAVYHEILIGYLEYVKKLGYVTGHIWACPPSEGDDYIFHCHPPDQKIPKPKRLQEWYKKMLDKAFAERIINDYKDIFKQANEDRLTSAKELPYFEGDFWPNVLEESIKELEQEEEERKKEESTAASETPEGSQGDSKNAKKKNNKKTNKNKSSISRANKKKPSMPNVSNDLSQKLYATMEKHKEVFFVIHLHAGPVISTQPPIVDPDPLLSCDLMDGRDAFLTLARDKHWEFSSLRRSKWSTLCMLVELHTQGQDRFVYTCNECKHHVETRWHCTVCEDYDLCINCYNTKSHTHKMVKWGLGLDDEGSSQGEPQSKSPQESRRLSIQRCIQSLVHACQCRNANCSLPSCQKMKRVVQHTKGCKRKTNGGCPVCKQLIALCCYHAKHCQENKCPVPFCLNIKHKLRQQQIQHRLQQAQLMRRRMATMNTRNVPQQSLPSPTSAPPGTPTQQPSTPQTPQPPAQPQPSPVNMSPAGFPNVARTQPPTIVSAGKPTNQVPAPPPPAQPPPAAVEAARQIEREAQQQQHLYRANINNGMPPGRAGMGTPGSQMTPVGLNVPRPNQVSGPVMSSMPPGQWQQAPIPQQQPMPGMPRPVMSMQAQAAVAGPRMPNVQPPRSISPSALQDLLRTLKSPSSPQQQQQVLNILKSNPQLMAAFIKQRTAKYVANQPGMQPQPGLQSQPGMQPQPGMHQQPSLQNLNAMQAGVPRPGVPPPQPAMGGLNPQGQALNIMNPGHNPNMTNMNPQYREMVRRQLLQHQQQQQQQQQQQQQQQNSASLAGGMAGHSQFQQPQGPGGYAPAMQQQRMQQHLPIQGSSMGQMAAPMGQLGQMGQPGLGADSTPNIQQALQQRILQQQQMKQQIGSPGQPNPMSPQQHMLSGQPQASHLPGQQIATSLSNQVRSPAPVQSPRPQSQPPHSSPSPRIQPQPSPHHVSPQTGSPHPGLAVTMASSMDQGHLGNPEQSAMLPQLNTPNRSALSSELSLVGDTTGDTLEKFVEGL

LAGGGSASSSADAAAFR — retention coefficient S (isocratic RP-HPLC, C18 column; peptide, water/acetonitrile, 0.1% TFA; 25 °C): 22.4
GGVVIA — viability (PC-12, differentiated; MTT; peptide; 10-fold excess over Aβ42, added: Aβ42 5 µM; reference: untreated): 73 ± 2%
teicoplanin — half-life (human patients): 2 days
KQKTLKKVWKLSEKVLIFASAFAKKAGAAEATLVL — MIC (Pseudomonas aeruginosa; peptide, ATCC 15692): 2 µM
HIF1A activation domain (Homo sapiens, UniProt Q16665) — Kd (CREBBP TAZ1 domain (UniProt P45481); not stated): 0.01 µM
GVVIA — viability (PC-12, differentiated; MTT; peptide; 10-fold excess over Aβ42, added: Aβ42 5 µM; reference: untreated): 83 ± 3%
STFGYRRGLSKYESIDEDELLASLSAEELKELERELEDIE (Lmod2(2-41); sequence looked up) — Kd (Tropomyosin alpha-1 chain (Tpm1, Rattus norvegicus, UniProt P04692); CD thermal unfolding; peptide; 30 °C): 0.37 ± 0.05 µM
insulin (human) — membrane level (BBB cells; outcome: increased, measured: LRP-1 and RAGE; concentration not given): increased
MAIRIIGRLARVRARVVARVRSRLLADDPPEDLLRVARRKGRRWFLFLS — MIC (Bacillus subtilis; peptide): 1.6 µM
LPLLR — nuclear Nrf2 level (Caco-2; peptide; concentration not given, up to, at high dose, added: H2O2; reference: H2O2 alone): ≤ 2.87 fold
PYCARD PYD domain (Homo sapiens, UniProt Q9ULZ3) — Kd (NLRP3 PYD (Homo sapiens, UniProt Q96P20); NMR titration): 22 µM
adrenomedullin — potency decrease (AM1 receptor, RAMP2 E101A; reference: wild type): > 10 fold
RQIKIWFQNRKWKWKK — MIC (Staphylococcus aureus; peptide, methicillin-resistant): 250 µg/mL
ifinatamab deruxtecan — objective response rate (patients with SCLC; dose not given): 58%
AIVV — IC50 (PC-12; Aβ42-induced toxicity, inhibitor, MTT; peptide; added: Aβ42): 14 ± 1 µM
pegcetacoplan — Cmax (cynomolgus monkey; subcutaneous, 140 mg/kg/day, day 28): 4180 µg/mL
RWIKIWFQIRRWKWKK — MIC (Staphylococcus aureus; peptide, methicillin-resistant): 23.4 µg/mL
AVIA — IC50 (PC-12; Aβ42-induced toxicity, inhibitor, LDH release; peptide; added: Aβ42): 22 ± 5 µM
HHLGGAKQAGDV — bond half-life (integrin αIIbβ3; peptide; concentration not given): ~0.02 s
VAIA — IC50 (PC-12; Aβ42-induced toxicity, inhibitor, MTT; peptide; added: Aβ42): 15 ± 3 µM
KWIKIWFIWRRIKWRK — MIC (Staphylococcus aureus; peptide, methicillin-resistant): 31.2 µg/mL
relaxin-2 — EC50 (Relaxin receptor 1 (RXFP1, Homo sapiens, UniProt Q9HBX9); cAMP production, agonist): 0.02 nM
B1 (CCL1) — EC50 (CCR8 S289A mutant; IP accumulation, agonist): 18 nM
indirubin-3'-monoxime — IC50 (HUVEC; ATP level, CellTiter-Glo): 8.7 µM

A few entries again:
LPLLR — nuclear Nrf2 level (Caco-2; peptide; concentration not given, up to, at high dose, added: H2O2; reference: H2O2 alone): ≤ 2.87 fold
PYCARD PYD domain (Homo sapiens, UniProt Q9ULZ3) — Kd (NLRP3 PYD (Homo sapiens, UniProt Q96P20); NMR titration): 22 µM
